Measurements collected from several papers.
Lines come from different studies, so protocols differ. Values joined by “and” are separate records of one study, mostly repeats; a detail may differ. Numbers after ± are the reported error.
Chain of UniProt Q007T0 (whole entry, looked up): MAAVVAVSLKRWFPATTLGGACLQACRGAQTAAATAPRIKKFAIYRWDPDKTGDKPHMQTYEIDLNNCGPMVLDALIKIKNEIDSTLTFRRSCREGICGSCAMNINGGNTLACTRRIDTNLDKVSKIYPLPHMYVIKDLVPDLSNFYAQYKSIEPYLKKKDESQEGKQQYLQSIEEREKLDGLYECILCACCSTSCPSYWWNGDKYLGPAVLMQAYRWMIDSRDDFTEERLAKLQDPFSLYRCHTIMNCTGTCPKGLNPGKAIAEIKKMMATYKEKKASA
Chain of UniProt D0VWV4 (whole entry, looked up): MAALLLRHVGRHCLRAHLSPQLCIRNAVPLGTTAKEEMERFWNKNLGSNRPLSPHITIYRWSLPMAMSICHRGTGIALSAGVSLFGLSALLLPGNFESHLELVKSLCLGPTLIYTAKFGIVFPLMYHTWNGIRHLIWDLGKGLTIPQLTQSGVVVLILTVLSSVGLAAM
Chain of UniProt A5GZW8 (whole entry, looked up): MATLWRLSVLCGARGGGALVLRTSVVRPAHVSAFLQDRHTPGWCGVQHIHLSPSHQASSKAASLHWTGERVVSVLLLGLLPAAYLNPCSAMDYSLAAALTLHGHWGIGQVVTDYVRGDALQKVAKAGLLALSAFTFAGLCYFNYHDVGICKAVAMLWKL
Chain of UniProt P41968 (whole entry, looked up): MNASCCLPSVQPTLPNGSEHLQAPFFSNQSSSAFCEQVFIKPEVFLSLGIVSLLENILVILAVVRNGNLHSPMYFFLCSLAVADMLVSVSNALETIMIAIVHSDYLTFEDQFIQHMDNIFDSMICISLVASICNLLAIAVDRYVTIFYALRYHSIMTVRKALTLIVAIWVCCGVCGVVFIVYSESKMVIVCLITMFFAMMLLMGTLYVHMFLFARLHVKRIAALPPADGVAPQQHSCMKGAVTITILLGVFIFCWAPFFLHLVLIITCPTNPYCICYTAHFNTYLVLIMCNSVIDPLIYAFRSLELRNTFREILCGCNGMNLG
Chain of UniProt Q62351 (whole entry, looked up): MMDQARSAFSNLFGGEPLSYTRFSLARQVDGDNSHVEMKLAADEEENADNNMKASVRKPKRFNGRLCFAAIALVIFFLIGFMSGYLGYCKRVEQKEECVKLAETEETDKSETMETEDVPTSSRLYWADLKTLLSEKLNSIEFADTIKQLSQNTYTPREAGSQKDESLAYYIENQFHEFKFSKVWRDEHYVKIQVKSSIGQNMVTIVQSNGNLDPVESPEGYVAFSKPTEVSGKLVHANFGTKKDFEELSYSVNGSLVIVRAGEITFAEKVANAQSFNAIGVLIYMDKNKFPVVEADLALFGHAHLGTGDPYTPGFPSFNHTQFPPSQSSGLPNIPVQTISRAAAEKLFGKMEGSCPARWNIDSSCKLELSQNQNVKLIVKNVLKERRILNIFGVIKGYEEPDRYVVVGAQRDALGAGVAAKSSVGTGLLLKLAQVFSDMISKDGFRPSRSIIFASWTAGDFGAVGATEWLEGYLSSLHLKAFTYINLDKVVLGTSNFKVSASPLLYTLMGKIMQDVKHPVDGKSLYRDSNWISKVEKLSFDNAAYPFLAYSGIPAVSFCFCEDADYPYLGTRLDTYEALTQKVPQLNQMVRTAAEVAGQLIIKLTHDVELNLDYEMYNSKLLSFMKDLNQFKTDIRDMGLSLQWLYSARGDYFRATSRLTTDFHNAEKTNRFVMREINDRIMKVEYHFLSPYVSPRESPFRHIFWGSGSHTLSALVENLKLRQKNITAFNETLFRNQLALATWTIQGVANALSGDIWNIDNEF
Chain of UniProt P27361 (whole entry, looked up): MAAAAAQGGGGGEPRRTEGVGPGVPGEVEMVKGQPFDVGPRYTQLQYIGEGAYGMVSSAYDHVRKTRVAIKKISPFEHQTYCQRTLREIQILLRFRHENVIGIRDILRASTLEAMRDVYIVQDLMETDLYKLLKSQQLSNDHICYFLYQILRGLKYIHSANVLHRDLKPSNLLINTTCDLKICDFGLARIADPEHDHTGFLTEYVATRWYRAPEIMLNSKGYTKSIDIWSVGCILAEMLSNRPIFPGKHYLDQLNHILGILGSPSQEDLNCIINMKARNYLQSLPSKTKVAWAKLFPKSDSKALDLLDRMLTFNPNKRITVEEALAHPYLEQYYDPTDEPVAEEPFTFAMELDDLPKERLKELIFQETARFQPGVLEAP
Chain of UniProt Q9UK32 (whole entry, looked up): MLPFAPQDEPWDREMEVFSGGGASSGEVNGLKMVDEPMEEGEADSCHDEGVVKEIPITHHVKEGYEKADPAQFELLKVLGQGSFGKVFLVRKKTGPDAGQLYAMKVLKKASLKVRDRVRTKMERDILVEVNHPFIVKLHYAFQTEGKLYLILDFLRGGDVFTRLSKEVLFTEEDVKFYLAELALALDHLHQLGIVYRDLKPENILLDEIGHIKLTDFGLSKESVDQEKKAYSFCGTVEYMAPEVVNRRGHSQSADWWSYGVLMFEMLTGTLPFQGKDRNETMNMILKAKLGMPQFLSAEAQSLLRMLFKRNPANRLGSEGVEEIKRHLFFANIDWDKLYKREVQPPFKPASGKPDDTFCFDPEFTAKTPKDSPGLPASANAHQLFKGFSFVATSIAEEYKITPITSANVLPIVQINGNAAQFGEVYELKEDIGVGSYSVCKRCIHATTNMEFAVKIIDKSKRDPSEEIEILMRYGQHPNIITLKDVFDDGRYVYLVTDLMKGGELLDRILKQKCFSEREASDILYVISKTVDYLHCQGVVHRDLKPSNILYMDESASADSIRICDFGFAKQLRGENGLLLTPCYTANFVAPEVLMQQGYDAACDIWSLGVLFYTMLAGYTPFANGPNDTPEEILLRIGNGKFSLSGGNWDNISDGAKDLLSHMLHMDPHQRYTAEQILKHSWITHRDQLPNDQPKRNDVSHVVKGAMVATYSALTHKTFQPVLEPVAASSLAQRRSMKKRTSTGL
Chain of UniProt P02716 (whole entry, looked up): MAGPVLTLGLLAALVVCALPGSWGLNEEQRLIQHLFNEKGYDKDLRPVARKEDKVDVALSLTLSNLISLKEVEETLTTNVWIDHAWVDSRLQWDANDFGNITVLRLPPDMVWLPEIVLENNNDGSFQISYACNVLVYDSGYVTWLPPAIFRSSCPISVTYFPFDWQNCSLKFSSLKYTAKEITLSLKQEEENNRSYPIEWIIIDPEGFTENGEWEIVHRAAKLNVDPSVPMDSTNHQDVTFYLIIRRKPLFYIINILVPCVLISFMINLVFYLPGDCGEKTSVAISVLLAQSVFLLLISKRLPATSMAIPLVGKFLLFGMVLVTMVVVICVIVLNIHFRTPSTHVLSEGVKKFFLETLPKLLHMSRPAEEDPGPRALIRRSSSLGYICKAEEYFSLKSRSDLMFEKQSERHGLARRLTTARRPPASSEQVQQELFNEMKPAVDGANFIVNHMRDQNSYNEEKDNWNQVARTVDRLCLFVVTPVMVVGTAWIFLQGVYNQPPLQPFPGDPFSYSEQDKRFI
Chain of UniProt P00942 (whole entry, unmodified, looked up): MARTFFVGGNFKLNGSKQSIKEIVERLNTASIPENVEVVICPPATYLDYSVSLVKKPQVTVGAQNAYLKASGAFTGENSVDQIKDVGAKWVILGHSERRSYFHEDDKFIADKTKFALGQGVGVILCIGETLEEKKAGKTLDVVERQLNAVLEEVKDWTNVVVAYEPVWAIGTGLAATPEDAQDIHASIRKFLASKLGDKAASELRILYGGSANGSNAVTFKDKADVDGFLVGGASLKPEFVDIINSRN
Chain of UniProt P30989 (whole entry, looked up): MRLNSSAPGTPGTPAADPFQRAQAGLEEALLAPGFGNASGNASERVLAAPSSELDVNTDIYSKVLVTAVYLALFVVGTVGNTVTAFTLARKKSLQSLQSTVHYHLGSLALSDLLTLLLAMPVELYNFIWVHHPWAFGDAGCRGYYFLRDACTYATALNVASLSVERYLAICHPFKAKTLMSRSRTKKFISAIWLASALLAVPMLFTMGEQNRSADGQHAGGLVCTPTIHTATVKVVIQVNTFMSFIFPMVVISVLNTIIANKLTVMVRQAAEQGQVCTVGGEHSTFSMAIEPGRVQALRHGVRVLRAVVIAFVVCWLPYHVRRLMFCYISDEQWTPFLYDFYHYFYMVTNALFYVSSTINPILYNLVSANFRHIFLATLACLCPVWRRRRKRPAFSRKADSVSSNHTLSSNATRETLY
Chain of UniProt Q9H3N8 (whole entry, looked up): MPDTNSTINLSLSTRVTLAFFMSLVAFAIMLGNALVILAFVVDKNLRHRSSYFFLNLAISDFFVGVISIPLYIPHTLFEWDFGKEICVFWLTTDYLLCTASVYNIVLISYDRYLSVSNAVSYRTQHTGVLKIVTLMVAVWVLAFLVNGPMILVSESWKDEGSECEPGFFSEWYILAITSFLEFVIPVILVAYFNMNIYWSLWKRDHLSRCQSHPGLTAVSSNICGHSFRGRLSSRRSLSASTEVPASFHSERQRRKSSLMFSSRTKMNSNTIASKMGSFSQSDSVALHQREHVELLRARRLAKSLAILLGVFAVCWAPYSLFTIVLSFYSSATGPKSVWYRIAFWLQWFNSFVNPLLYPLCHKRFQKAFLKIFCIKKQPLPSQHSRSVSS
Chain of UniProt P00330 (whole entry, unmodified, looked up): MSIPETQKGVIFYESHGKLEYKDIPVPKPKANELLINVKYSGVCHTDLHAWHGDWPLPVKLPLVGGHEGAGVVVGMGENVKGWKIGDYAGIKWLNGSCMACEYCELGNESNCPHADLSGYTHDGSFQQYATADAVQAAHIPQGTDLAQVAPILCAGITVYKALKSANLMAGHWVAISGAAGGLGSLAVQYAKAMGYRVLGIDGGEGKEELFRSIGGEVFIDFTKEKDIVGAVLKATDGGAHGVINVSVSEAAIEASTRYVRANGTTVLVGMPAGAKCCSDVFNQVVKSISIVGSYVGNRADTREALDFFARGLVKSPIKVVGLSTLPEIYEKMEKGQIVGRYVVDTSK
Chain of UniProt P07148 (whole entry, looked up): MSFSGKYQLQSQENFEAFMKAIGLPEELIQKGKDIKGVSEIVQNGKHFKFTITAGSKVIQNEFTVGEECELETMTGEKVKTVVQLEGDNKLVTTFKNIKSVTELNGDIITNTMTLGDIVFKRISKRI

CN(C(=O)n1cnc(-c2ccc[n+]([O-])c2)c1)C1CCCCC1 — inhibition (Gastrin-releasing peptide receptor (GRPR, Homo sapiens, UniProt P30550); radioligand binding; 10 µM): -3%
Cn1nccc1[C@]1(CNC(=O)c2ccc(F)c(F)c2-c2ccc(C(F)(F)F)cc2)NC(=O)NC1=O — selectivity ratio (Cathepsin B (CTSB, Homo sapiens, UniProt P07858); inhibitor; reference: CTSB over target): > 16700
NCc1cc(=O)[nH]o1 — Hill coefficient (GABA-A receptor; GABA-A site (alpha1/beta2 interface), with gamma-2 subunit (Homo sapiens, UniProt P14867+P47870); agonist-activated current, whole-cell patch clamp; HEK293 stably expressing; agonist concentration-response): 1.2 ± 0.1
O=C(Nc1cccc(C(=O)Nc2ccc3c(c2)B(O)OC3)c1)c1ccccc1 — inhibition (Genome polyprotein, NS2B-NS3 protease (West Nile virus, UniProt P06935); enzyme activity, FRET; 50 µM, with: substrate 50 µM): 42 ± 1%
OB(O)c1csc2ccccc12 — IC50 (Uncharacterized hydrolase SAUSA300_2518 (Staphylococcus aureus, UniProt Q2FDS6); FP-Cy5 probe labeling, inhibitor, competitive activity-based labeling): > 50 µM
CN1CCN(c2cc(-c3ccncc3)c(-c3ccc4ccccc4c3)nn2)CC1 — activation (P2Y purinoceptor 4 (P2RY4, Homo sapiens, UniProt P51582); agonist, FLIPR; 12.5 µM): 0.4%
CCOC(=O)CC(SP(=O)(OC)OC)C(=O)OCC (stereo not shown) — remaining activity (uncharacterized protein (Anopheles coluzzii, UniProt A0A6E8VQK1); enzyme activity, inhibitor; Sf9 cell homogenate; 22.94 µM, 0.1667 h, with: α-naphthyl acetate substrate; reference: no inhibitor): 2.95%
CCCCCCCC(=O)N[C@H]1CCOC1=O — Emax (Regulatory protein SdiA (sdiA, Escherichia coli, UniProt P07026)): 105%
CN(c1ccc2c(c1)B(O)OC2)S(=O)(=O)c1ccc(Cl)cc1 — inhibition (Genome polyprotein, NS2B-NS3 protease (dengue virus type 2, UniProt P29990); enzyme activity, FRET; dengue virus serotype 2; 50 µM, with: substrate 50 µM): 19 ± 7%
[2H]c1c([2H])c([C@]2([2H])CCCN2C(=O)C(C)(C)Oc2ccc3cn[nH]c3c2)c([2H])c([2H])c1C([2H])([2H])[2H] — remaining binding (Serine/threonine-protein kinase PAK 5 (PAK5, Homo sapiens, UniProt Q9P286); KINOMEscan; 1 µM; reference: DMSO control): 64%
COc1cc(N)c(Cl)cc1C(=O)NC1CN2CCC1CC2 (stereo not shown) — log2 fold change (G-protein coupled receptor 55 (GPR55, Homo sapiens, UniProt Q9Y2T6); β-arrestin recruitment, TANGO luminescence; concentration not given; reference: basal luminescence): 0.167
COc1cc(Nc2ncc(F)c(Nc3ccc4c(n3)NC(=O)C(C)(C)O4)n2)cc(OC)c1OC — inhibition (Cyclin-dependent kinase 11A (CDK11A, Homo sapiens, UniProt Q9UQ88); binding, KINOMEscan; 10 µM, CDC2L2 kinase): 0%
COc1cc2c3cc1Oc1cc(ccc1O)C[C@@H]1c4c(cc(OC)c(O)c4Oc4ccc(cc4)C[C@@H]3N(C)CC2)CC[N+]1(C)C — response amplitude (Chrnd/Chrna1/Chrne (Mus musculus, UniProt P02716+P04756+P20782); mouse diaphragm; 0.04 µM, AChE intact; reference: control): 80%
CC=O — Km increase (ADH1 (Saccharomyces cerevisiae, UniProt P00330, H49Q); enzyme activity, substrate; pH 7.3; reference: wild type): 16 fold
COC(=O)[C@@]1(O)C[C@H]2O[C@]1(C)n1c3ccccc3c3c4c(c5c6ccccc6n2c5c31)C(=O)NC4 — remaining activity (Mitogen-activated protein kinase 3 (MAPK3, Homo sapiens, UniProt P27361); ADP-Glo; 35 µM, with: substrate MBP): 115%
COc1ncccc1-c1cnn2ccc(N3CCN(C(=O)OC(C)C)CC3)nc12 — remaining binding (Ribosomal protein S6 kinase alpha-6, N-terminal kinase domain (RPS6KA6, Homo sapiens, UniProt Q9UK32); KINOMEscan binding; 1 µM; reference: untreated control): 96%
O=C(O)COP(=O)(O)O — Ki ratio (TPI1 (Saccharomyces cerevisiae, UniProt P00942, Y208T); enzyme activity, competitive inhibitor, GPDH/NADH-coupled; pH 6.4, 25 °C, ionic strength 0.1 NaCl, with: glyceraldehyde 3-phosphate substrate; reference: mutant over wild type): 8.1
CC(C)[C@@H](O)CC[C@@H](C)[C@H]1CC[C@H]2[C@@H]3CC=C4C[C@@H](O)CC[C@]4(C)[C@H]3CC[C@]12C — current response (Glutamate NMDA receptor; GRIN1/GRIN2B (GRIN1/GRIN2B, Homo sapiens, UniProt Q05586+Q13224, A549C); positive allosteric modulator, two-electrode voltage clamp; Xenopus oocytes expressing GluN2B-A549C; 10 µM, 0.02% cremophor, with: 100 µM glutamate and glycine; reference: without compound): 161 ± 8.7%
[O]=[Sb]([OH])([OH])[c]1ccccc1 — substrate conversion (Flap endonuclease 1 (Homo sapiens, UniProt P39748); gel radiotracer; 100 nM, 5 min, room temperature, with: single-flap substrate 50 nM): 33%
O=C(NNC(=O)c1csnn1)c1ccc(Cl)cc1 — remaining activity (Acetyl-CoA synthetase (Cryptococcus neoformans, UniProt J9VFT1); 1.56 µM): 60.3%
O=C(Nc1cnccc1Cl)N1CCN(Cc2ccc3c(c2)OC(F)(F)O3)CC1 — inhibition (Melanocortin receptor 3 (MC3R, Homo sapiens, UniProt P41968); radioligand binding; concentration not given): 12% and 5%
COc1ccc(N2C(=O)N(c3c(C)cccc3Cl)Cc3cnc(Nc4ccc(C5CCN(C)CC5)cc4OC)nc32)nc1 — inhibition (Cyclin-dependent kinase 9 (CDK9, Homo sapiens, UniProt P50750); kinase activity, inhibitor; 0.5 µM, complex with -CYCLINT1): 3.61%
O=C(Nc1ccc([N+](=O)[O-])cc1Cl)c1cc(Cl)ccc1O — binding fold change (Fatty acid-binding protein, liver (FABP1, Homo sapiens, UniProt P07148); affinity selection mass spectrometry; 100 nM, with: pooled compounds; reference: other proteins): 22
O=C(c1ccc(Cl)cc1)N1CCN2C(=O)N(OC(=O)N3CCOc4ccccc43)C(=O)C2C1 (stereo not shown) — median protein ratio (sn-1-specific diacylglycerol lipase ABHD11 (ABHD11, Homo sapiens, UniProt Q8NFV4); MS-based ABPP; SW-620 conditioned medium; 10 µM, 1 h, 37 °C; reference: compound over DMSO, lower = more inhibition): 1.12
O=C(Nc1cccnn1)N1CCC(=Cc2cccc(Oc3ccc(C(F)(F)F)cn3)c2)CC1 — inhibition of binding (Histamine H4 receptor (HRH4, Homo sapiens, UniProt Q9H3N8); radioligand binding; 50 µM, with: [3H]histamine): 62%
CCN(CC)CCCC[C@H](NC(=O)[C@H](CC(C)C)NC(=O)[C@H](C)NC(=O)[C@H](Cc1ccccc1)NC(=O)c1ccc(C(C)(C)C)cc1)C(=O)N[C@@H](CO)C(=O)OC — specific binding (Neurotensin receptor type 1 (NTSR1, Homo sapiens, UniProt P30989); radioligand binding; 10 µM): 110%
CC[C@@H](C)[C@@H](NC(=O)[C@@H](Cc1ccc(O)cc1)NC(=O)[C@H]1CCCN1C(=O)[C@@H](CCCNC(=N)N)NC(=O)[C@H](N)Cc1c[nH]cn1)C(=O)N[C@H](C)C(=O)N[C@H](Cc1c[nH]cn1)C(=O)N[C@H](CCCNC(=N)N)C(=O)N[C@H](CCCCNC(=O)c1cccc(S(=O)(=O)F)c1)C(=O)N[C@H](Cc1ccc(O)cc1)C(=O)N[C@H](CO)C(=O)N[C@H](Cc1ccccc1)C(N)=O — surface TFRC expression (Transferrin receptor protein 1 (Tfrc, Mus musculus, UniProt Q62351); flow cytometry; RAW264.7; 48 h, pH 6, replicate 3, unit not given; reference: 0 h): 0.994
O=C(O)CCCCN(CCc1cc(F)ccc1OCc1ccc(-c2ccc(C(F)(F)F)cc2)cc1)Cc1ccc(C(=O)O)cc1 — cGMP level (Gucy1b1, heme-free (Rattus norvegicus, UniProt P20595); A7r5; 1 µM, compound alone, with: ODQ 10 µM pretreatment; reference: untreated control): 7.06 ± 2.02 fold
C=C(CN(C(=O)c1c(C(F)F)nn(C)c1F)C1CC1)c1ccc(Cl)cc1Cl — reaction velocity (SDHD/SDHC/SDHB (Sus scrofa, UniProt A5GZW8+D0VWV4+Q007T0); enzyme activity, inhibitor, DCIP reduction; pig; 0.4 µM, with: DCIP 120 µM): 0.0141 µM/s and 0.0132 µM/s and 0.0129 µM/s
O=c1c2ccccc2oc2cc(OCCCCc3ccccc3)ccc12 — reaction velocity (Acetylcholinesterase (ache, Electrophorus electricus, UniProt O42275); enzyme activity; 2.91 µM, with: substrate 3.45 mM; higher = faster reaction): 0.0022 a.u.
CC[C@H](CO)Nc1nc(NCc2ccc(-c3ccccn3)cc2)c2ncn(C(C)C)c2n1 — binding score (Dual specificity tyrosine-phosphorylation-regulated kinase 1B (DYRK1B, Homo sapiens, UniProt Q9Y463); KINOMEscan competition binding; 10 µM, primary screen; direction not given): 4.8
CC(C)CCN[C@H]1[C@H]([C@H](O)[C@H](O)CO)OC(C(=O)O)=C[C@@H]1O — activity (Sialidase-1 (NEU1, Homo sapiens, UniProt Q99519); enzyme activity, inhibitor; concentration not given, pH 4.5): inactive
COc1ccccc1CCN1CCN(CCc2ccccc2)CC1 — maximal inhibition (Synaptic vesicular amine transporter (Slc18a2, Rattus norvegicus, UniProt Q01827); [3H]dopamine uptake, inhibitor; rat striatal vesicles): 100%
C[C@H]1CN(c2n[nH]c3nc(N[C@H]4CC[C@H](NS(=O)(=O)CCC(F)(F)F)CC4)ncc23)CCO1 — relative abundance (E3 ubiquitin-protein ligase UBR4 (UBR4, Homo sapiens, UniProt Q5T4S7); inhibitor, Kinobeads competition profiling; 0.032 µM; reference: vehicle): 1
CC/C(=C(\c1ccc(O)cc1)c1ccc(OCCN(C)C)cc1)c1ccccc1 — adenylyl cyclase activity increase (Cannabinoid receptor 2 (CNR2, Homo sapiens, UniProt P34972); measured: cAMP; CHO-hCB2 cells; 10 µM; reference: basal): 175%
CN1CCc2[nH]c3ccccc3c2CC1.O=C(O)/C=C/C(=O)O — recovery time constant (Nicotinic acetylcholine receptor alpha9/alpha10 (Rattus norvegicus, UniProt P43144+Q9JLB5); ion current, inhibitor, two-electrode voltage clamp; Xenopus laevis oocytes; 3 µM, rat receptor, with: acetylcholine 100 µM): 19 ± 0.9 s
Oc1c(Br)cc(Br)cc1Oc1ccc(Br)cc1Br — Vmax/Km (Sulfotransferase 1E1 (SULT1E1, Homo sapiens, UniProt P49888); sulfonation, substrate): 1570 µL/min/mg
